Experimental data pooled from the literature.
Each line is one published result; not all experiments were run side by side. Values joined by “and” are separate records of one study, mostly repeats; a detail may differ. ± marks the error that the study gave.

By UniProt entry, the sequences of proteins in these tests, tags left out.
UniProt P28221, whole entry: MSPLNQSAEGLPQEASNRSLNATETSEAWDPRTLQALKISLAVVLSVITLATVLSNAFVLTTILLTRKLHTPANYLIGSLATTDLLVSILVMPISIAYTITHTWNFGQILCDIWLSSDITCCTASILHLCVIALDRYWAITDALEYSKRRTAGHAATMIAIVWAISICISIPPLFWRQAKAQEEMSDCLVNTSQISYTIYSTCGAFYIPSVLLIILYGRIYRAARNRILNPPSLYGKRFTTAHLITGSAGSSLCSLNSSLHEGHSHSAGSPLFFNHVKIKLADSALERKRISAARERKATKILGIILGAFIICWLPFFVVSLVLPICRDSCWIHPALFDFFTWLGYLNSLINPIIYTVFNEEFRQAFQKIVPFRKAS

SMILES	target or system	assay	test system	conditions	endpoint	value
C/C(=C\C=C\[C@@H](C)[C@H]1CC[C@@]2(C)[C@@H]3CC[C@H]4C(C)(C)[C@@H](O[C@@H]5O[C@H](CO)[C@@H](O)[C@H](O)[C@H]5O[C@@H]5O[C@H](CO)[C@@H](O)[C@H](O)[C@H]5O[C@@H]5O[C@@H](C)[C@H](O)[C@@H](O)[C@H]5O)CC[C@@]45C[C@@]35CC[C@]12C)C(=O)N[C@@H]1C(=O)O[C@H](C)[C@@H]1C	Trypanosoma brucei brucei	Alamar Blue	trypomastigote		IC90	10600 nM
CC(C)(NC(=O)Nc1ccc(Cl)c(-c2nc(C(F)(F)F)cs2)c1)c1cccc(C(N)=NO)c1	Staphylococcus aureus		Smith, RPMI medium	added: no guanosine	MIC	0.8 µM and ~1 µM
NC[C@@H](NC[C@@H]1CCCN1C[C@@H](CO)NC[C@@H](NCCC1CC2CCC1C2)c1ccccc1)c1ccccc1 (stereo partly drawn)	Klebsiella pneumoniae	bacterial growth		compound alone	IC90	> 24000 nM
CC(C)CN(C[C@@H](O)[C@H](Cc1ccccc1)NC(=O)O[C@H]1CO[C@@H]2OCC(F)(F)[C@@H]21)S(=O)(=O)c1ccc(N)cc1	HIV-1 LAI	viral replication, MTT	MT2	concentration not given	antiviral activity	inactive
O=c1c2ccc(Oc3ccc(OC(F)(F)F)cc3)cc2[nH]c2cc(F)cc(F)c12	Toxoplasma gondii	parasite growth, beta-galactosidase reporter	HFF, RH		EC50	0.053 nM
C[C@H](CS)C(=O)N[C@@H](Cc1c[nH]c2ccccc12)C(=O)O	Enterobacter aerogenes		IMP-1 producing	25 µM, added: meropenem	MIC of meropenem	16 µg/mL
CN1CC[C@H](c2c(O)cc(O)c3c(=O)cc(-c4cccc(Cl)c4)oc23)[C@H](O)C1	HIV-1	viral replication	HeLa-CD4-LTR/β-gal, LAI		EC50	30.8 nM
CC(C)(NC(=O)Nc1ccc(Cl)cc1)c1cccc(C(=N)NO)c1	Staphylococcus aureus		Smith, RPMI medium	added: no guanosine	MIC	4 ± 2 µM
CO[C@H]1[C@H](O[C@H]([C@H]2O[C@@H](n3ccc(=O)[nH]c3=O)[C@H](O)[C@@H]2O)[C@H](NCCCNC(=O)[C@@H](NC(=O)[C@@H](NC(=O)N[C@H](C(=O)O)C(C)C)[C@@H]2CCNC(=N)N2)[C@@H](OC(=O)CCCCCCCCCCCCN(O)C(=N)N)C(C)C)C(N)=O)O[C@H](CN)[C@H]1O	Cryptococcus neoformans	alamar blue			MIC50	> 35 µg/mL
NC[C@@H](NC[C@@H]1CCCN1C[C@@H](CO)NC[C@@H](NCCC12CC3CC(CC(C3)C1)C2)c1ccccc1)c1ccccc1	Acinetobacter baumannii	bacterial growth		16 µM, fold shift of IC50, added: amikacin	potentiation of amikacin	10.9 fold
CC(C)(O)Cn1nc(-c2ccc3nc(OC4CC4)ccc3c2)c2c(N)ncnc21	Cryptosporidium parvum	parasite growth	HCT-8		EC50	464 nM
CN1CC[C@H](c2c(O)cc(O)c3c(=O)cc(-c4ccccn4)oc23)[C@H](O)C1	HIV-1	viral replication	HeLa-CD4-LTR/β-gal, LAI		EC50	> 1000 nM
COc1ccc(CN[C@@H]2CO[C@H](C(c3ccccc3)c3ccccc3)C[C@H]2O)cc1	5-hydroxytryptamine receptor 1D (HTR1D, Homo sapiens, UniProt P28221)	radioligand binding		10 µM, added: [3H]GR-125743	inhibition	-6.2%
CO[C@H]1[C@H](O[C@H]([C@H]2O[C@@H](n3ccc(=O)[nH]c3=O)[C@H](O)[C@@H]2O)[C@H](NCCCNC(=O)[C@@H](NC(=O)[C@@H](NC(=O)N[C@H](C(=O)O)C(C)C)[C@@H]2CCNC(=N)N2)[C@@H](OC(=O)CCCCCCCCCCCCNC(=N)N)C(C)C)C(N)=O)O[C@H](CN)[C@H]1O	Cryptococcus neoformans	alamar blue			MIC50	> 35 µg/mL
N#Cc1ccc(S(=O)(=O)NCc2cn(CB(O)O)nn2)cc1	Klebsiella pneumoniae		blaKPC-2	10 µg/mL, added: cefepime	MIC of cefepime	4 µg/mL
NCc1ccc(-c2ncc(OCC3CCNCC3)nc2-c2ccc(-c3ccoc3)cc2)cc1	Zika virus		U87, FLR	300 nM, 48 h	infectious virus reduction	68%
CN(C)c1cc(CN2CCOCC2)nc2nc(NCc3ccc(C(C)(C)C)cc3)nn12	Saccharomyces cerevisiae		wild type	123 µg/mL, without pantothenic acid	growth inhibition	~70%
CN1CC[C@H](c2c(O)cc(O)c3c(=O)cc(-c4ccc(Cl)cc4)oc23)[C@H](O)C1	HIV-1	viral replication	HeLa-CD4-LTR/β-gal, LAI		EC50	16.7 nM
COc1cc(C(C)C#Cc2c(C)nc(N)nc2N)cc(OC)c1OC (stereo not drawn)	Candida glabrata	Alamar Blue			MIC	21 µg/mL
C=CC(=O)Nc1cc(-n2c(=O)ccc3cnc4ccc(-c5cn[nH]c5)cc4c32)ccc1C	HEL	cell growth		72 h	GI50	1200 nM
CN1CC[C@]23c4c5ccc(O)c4O[C@H]2c2ncc(-c4ccc(Cl)cc4)cc2C[C@@]3(OCCCc2ccccc2)[C@H]1C5		antinociception	CD-1 mouse, chemotherapy-induced neuropathy	sc, day 1	A50	0.83 mg/kg
NCCNCCSc1ccccc1			n-octanol/phosphate buffer	25 µg/mL, pH 7.4	logP	-0.6 ± 0.03
C=C(C)c1cccc(C(C)(C)NC(=O)Nc2ccc(Cl)c(O)c2)c1	Staphylococcus aureus		Smith, RPMI medium	added: 1 mM guanosine	MIC	> 50 µM
O=C(O)c1cccc(C#Cc2ccccc2)c1-c1ccc2cc[nH]c2c1	Epstein-Barr virus		EBV-positive lymphoblastoid cells, mouse xenograft	30 mg/kg twice daily	tumour size	decreased

Repeated from above:
SMILES	target or system	assay	test system	conditions	endpoint	value
CC(C)CN(C[C@@H](O)[C@H](Cc1ccccc1)NC(=O)O[C@H]1CO[C@@H]2OCC(F)(F)[C@@H]21)S(=O)(=O)c1ccc(N)cc1	HIV-1 LAI	viral replication, MTT	MT2	concentration not given	antiviral activity	inactive
O=c1c2ccc(Oc3ccc(OC(F)(F)F)cc3)cc2[nH]c2cc(F)cc(F)c12	Toxoplasma gondii	parasite growth, beta-galactosidase reporter	HFF, RH		EC50	0.053 nM
N#Cc1ccc(S(=O)(=O)NCc2cn(CB(O)O)nn2)cc1	Klebsiella pneumoniae		blaKPC-2	10 µg/mL, added: cefepime	MIC of cefepime	4 µg/mL
